Results pooled from the literature.
Compare with care: the assays were run in different laboratories. Values joined by “and” are separate records of one study, mostly repeats; a detail may differ. ± gives the spread as reported.

| SMILES | target or system | test | test system | setting | how to read | endpoint | value |
| --- | --- | --- | --- | --- | --- | --- | --- |
| NC(=O)N/N=C/c1ccc(OCc2ccccc2)cc1 | IMR-32 | MTT | – | 50 µg/mL, 24 h | relative to: untreated control | viability | 83.7% |
| COc1ccc2nc3cc(Cl)ccc3c(NCCNC(C)=C3C(=O)C=C4Oc5c(C(C)=O)c(O)c(C)c(O)c5C4(C)C3=O)c2c1 (centres unmarked) | L6 rat skeletal myoblasts | cytotoxicity, Alamar Blue | – | – | – | IC50 | 9.6 µM |
| CCN(CCCCOc1ccc(CCC(=O)N2CCC(Cc3ccccc3)CC2)cc1OC)Cc1ccccc1 | Caco-2 monolayer | – | – | 40 µM, 120 min | – | efflux ratio | 1.39 |
| CC(C)C[C@H](NC(=O)[C@H](CCC(=O)O)NC(=O)[C@H](C)NC(=O)[C@H](CC(C)C)NC(=O)[C@H](CCC(=O)O)NC(=O)[C@H](C)NC(=O)[C@H](CCC(N)=O)NC(=O)[C@H](CC(C)C)NC(=O)[C@H](CCC(=O)O)NC(=O)[C@H](Cc1ccc(O)cc1)NC(=O)[C@H](CC(C)C)NC(=O)[C@H](CCC(N)=O)NC(=O)[C@H](C)NC(=O)[C@H](CCC(=O)O)NC(=O)[C@H](CC(C)C)NC(=O)[C@H](CCC(N)=O)NC(=O)[C@H](C)NC(=O)[C@H](CC(C)C)NC(=O)[C@H](CCC(=O)O)NC(=O)[C@H](C)NC(=O)[C@@H](N)CCC(N)=O)C(N)=O | human erythrocytes | haemolysis | – | – | – | LC50 | > 250 µM |
| CC(C)C[C@@H](NC(=O)[C@H](NC(=O)[C@@H](CCCCN)NC(=O)[C@@H](CCCCN)NC(=O)[C@@H](CC(C)C)NC(=O)[C@@H](Cc1c[nH]c2ccccc12)NC(=O)[C@@H](CCCCN)NC(=O)[C@@H](Cc1c[nH]c2ccccc12)NC(=O)[C@@H](CC(C)C)NC(=O)[C@@H](CCCCN)NC(=O)[C@@H](CCCCN)NC(=O)[C@H](N)C(C)C)C(C)C)C(N)=O | sheep red blood cells | 10% haemolysis | – | 1 h, 37 °C | – | minimum haemolytic concentration | 75 µM |
| COc1cc(/C=C/C(=O)Oc2cc(C(F)(F)F)cc(C(F)(F)F)c2)ccc1O | HaCaT | MTT | – | 24 h, 10% FBS | – | subcytotoxic concentration | 5 µM |
| CC[C@H](C)[C@H](NC(=O)[C@H](C)NC(=O)[C@H](CCCCN)NC(=O)[C@H](CC(C)C)NC(=O)[C@@H](N)Cc1ccccc1)C(=O)N[C@@H](CCCCN)C(=O)N[C@@H](CCCCN)C(=O)N[C@@H](Cc1ccccc1)C(=O)NCC(=O)N[C@@H](CCCCN)C(=O)N[C@@H](CCC(=O)O)C(=O)N[C@@H](Cc1ccccc1)C(=O)N[C@@H](CCCCN)C(=O)N[C@@H](CCCCN)C(=O)N[C@H](C(=O)NCC(=O)N[C@@H](C)C(=O)N[C@@H](CCCCN)C(=O)N[C@@H](CC(C)C)C(=O)N[C@@H](CCCCN)C(=O)O)[C@@H](C)CC | HaCaT | cell growth or viability, MTT | – | 8 µg/mL | – | viability | 94.6% |
| COC(=O)c1cc2c(=O)n3ccccc3nc2n1Cc1ccccc1 | Vero | MTT | – | 6.3 µM, 24 (unit not given) | – | viability | 67% |
| CNC(=O)C[C@H](Cc1ccncc1)NC(=O)[C@@H](Cc1cccc(Br)c1)NC(=O)[C@@H](N)Cc1ccsc1 | Huh-7-ACE2 | CellTiter-Glo | – | 0.000191 µM, 48 h, unit not given | relative to: DMSO | viability | 1 and 0.949 |
| O=C1NC2(CC2)COc2ncc(F)cc2[C@H]2COCCN2c2ccn3ncc1c3n2 | – | – | Sprague-Dawley rat, female, thymus | oral, 5 mg/kg/day, 4 weeks, end of treatment | – | organ-to-body weight ratio | 0.169 ± 0.04% |
| CC[C@@H](C)[C@@H](NC(=O)[C@@H](Cc1c[nH]c2ccccc12)NC(=O)[C@@H](CCCCN)NC(=O)[C@@H](CC(C)C)NC(=O)[C@H](NC(=O)[C@H](NC(=O)CNC(=O)[C@@H](CCCCN)NC(=O)[C@@H](Cc1c[nH]cn1)NC(=O)[C@@H](CCCCN)NC(=O)[C@@H](Cc1c[nH]c2ccccc12)NC(=O)[C@@H](C)NC(=O)[C@@H](CC(C)C)NC(=O)[C@@H](CO)NC(=O)[C@H](NC(=O)[C@@H](Cc1ccc(O)cc1)NC(=O)[C@@H](CCCCN)NC(=O)[C@@H](CCC(N)=O)NC(=O)CNC(=O)[C@@H](CCCCN)NC(=O)[C@H](NC(=O)[C@@H](C)NC(=O)[C@@H](CC(C)C)NC(=O)[C@@H](Cc1ccccc1)NC(=O)[C@@H](CCC(N)=O)NC(=O)[C@H](NC(=O)[C@@H](CC(C)C)NC(=O)[C@@H](CCCCN)NC(=O)[C@@H](CCSC)NC(=O)[C@@H](Cc1ccccc1)NC(=O)[C@@H](C)NC(=O)[C@@H](C)NC(=O)[C@@H](CCSC)NC=O)[C@H](C)CC)[C@H](C)O)C(C)C)[C@H](C)O)[C@H](C)CC)C(=O)N[C@H](CC(N)=O)C(=O)N[C@H](C)C(=O)NCC(=O)N[C@H](CCC(N)=O)C(=O)N[C@H](CO)C(=O)N[C@H](Cc1ccccc1)C(=O)N[C@H](CCC(=O)O)C(=O)N[C@H](Cc1c[nH]c2ccccc12)C(=O)N[C@@H](C(=O)N[C@H](Cc1ccc(O)cc1)C(=O)N[C@H](CCCCN)C(=O)N[C@H](CCC(N)=O)C(=O)N[C@@H](C(=O)N[C@H](CCCCN)C(=O)N[C@H](CCCCN)C(=O)N[C@H](CC(C)C)C(=O)N[C@H](Cc1c[nH]c2ccccc12)C(=O)N[C@H](C)C(=O)O)[C@H](C)CC)[C@H](C)CC | human erythrocytes | hemolysis | – | pH 7.2 | relative to: water complete hemolysis | HD50 | 600 µg/mL |

Repeated from above:
| SMILES | target or system | test | test system | setting | how to read | endpoint | value |
| --- | --- | --- | --- | --- | --- | --- | --- |
| CC(C)C[C@H](NC(=O)[C@H](CCC(=O)O)NC(=O)[C@H](C)NC(=O)[C@H](CC(C)C)NC(=O)[C@H](CCC(=O)O)NC(=O)[C@H](C)NC(=O)[C@H](CCC(N)=O)NC(=O)[C@H](CC(C)C)NC(=O)[C@H](CCC(=O)O)NC(=O)[C@H](Cc1ccc(O)cc1)NC(=O)[C@H](CC(C)C)NC(=O)[C@H](CCC(N)=O)NC(=O)[C@H](C)NC(=O)[C@H](CCC(=O)O)NC(=O)[C@H](CC(C)C)NC(=O)[C@H](CCC(N)=O)NC(=O)[C@H](C)NC(=O)[C@H](CC(C)C)NC(=O)[C@H](CCC(=O)O)NC(=O)[C@H](C)NC(=O)[C@@H](N)CCC(N)=O)C(N)=O | human erythrocytes | haemolysis | – | – | – | LC50 | > 250 µM |
